Measured values pooled from the literature.
HDAC1: Histone deacetylase 1 (HDAC1, Homo sapiens, UniProt Q13547)
UniProt Q13547, sequence (whole entry, looked up): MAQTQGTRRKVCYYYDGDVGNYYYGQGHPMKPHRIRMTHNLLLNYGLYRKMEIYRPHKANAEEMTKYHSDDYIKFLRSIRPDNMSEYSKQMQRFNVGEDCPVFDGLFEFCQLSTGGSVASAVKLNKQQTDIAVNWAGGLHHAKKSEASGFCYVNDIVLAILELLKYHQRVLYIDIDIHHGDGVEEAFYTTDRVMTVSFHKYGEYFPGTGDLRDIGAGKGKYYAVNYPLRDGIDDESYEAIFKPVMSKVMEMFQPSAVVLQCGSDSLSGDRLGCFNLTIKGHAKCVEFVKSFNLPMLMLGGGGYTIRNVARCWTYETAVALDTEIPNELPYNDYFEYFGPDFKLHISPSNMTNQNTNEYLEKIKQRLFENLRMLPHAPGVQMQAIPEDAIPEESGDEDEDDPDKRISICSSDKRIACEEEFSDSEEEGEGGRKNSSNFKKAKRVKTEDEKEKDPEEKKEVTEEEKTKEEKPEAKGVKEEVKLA
TRPM7: Transient receptor potential cation channel subfamily M member 7 (TRPM7, Homo sapiens, UniProt Q96QT4)
UniProt Q96QT4, sequence (whole entry, looked up): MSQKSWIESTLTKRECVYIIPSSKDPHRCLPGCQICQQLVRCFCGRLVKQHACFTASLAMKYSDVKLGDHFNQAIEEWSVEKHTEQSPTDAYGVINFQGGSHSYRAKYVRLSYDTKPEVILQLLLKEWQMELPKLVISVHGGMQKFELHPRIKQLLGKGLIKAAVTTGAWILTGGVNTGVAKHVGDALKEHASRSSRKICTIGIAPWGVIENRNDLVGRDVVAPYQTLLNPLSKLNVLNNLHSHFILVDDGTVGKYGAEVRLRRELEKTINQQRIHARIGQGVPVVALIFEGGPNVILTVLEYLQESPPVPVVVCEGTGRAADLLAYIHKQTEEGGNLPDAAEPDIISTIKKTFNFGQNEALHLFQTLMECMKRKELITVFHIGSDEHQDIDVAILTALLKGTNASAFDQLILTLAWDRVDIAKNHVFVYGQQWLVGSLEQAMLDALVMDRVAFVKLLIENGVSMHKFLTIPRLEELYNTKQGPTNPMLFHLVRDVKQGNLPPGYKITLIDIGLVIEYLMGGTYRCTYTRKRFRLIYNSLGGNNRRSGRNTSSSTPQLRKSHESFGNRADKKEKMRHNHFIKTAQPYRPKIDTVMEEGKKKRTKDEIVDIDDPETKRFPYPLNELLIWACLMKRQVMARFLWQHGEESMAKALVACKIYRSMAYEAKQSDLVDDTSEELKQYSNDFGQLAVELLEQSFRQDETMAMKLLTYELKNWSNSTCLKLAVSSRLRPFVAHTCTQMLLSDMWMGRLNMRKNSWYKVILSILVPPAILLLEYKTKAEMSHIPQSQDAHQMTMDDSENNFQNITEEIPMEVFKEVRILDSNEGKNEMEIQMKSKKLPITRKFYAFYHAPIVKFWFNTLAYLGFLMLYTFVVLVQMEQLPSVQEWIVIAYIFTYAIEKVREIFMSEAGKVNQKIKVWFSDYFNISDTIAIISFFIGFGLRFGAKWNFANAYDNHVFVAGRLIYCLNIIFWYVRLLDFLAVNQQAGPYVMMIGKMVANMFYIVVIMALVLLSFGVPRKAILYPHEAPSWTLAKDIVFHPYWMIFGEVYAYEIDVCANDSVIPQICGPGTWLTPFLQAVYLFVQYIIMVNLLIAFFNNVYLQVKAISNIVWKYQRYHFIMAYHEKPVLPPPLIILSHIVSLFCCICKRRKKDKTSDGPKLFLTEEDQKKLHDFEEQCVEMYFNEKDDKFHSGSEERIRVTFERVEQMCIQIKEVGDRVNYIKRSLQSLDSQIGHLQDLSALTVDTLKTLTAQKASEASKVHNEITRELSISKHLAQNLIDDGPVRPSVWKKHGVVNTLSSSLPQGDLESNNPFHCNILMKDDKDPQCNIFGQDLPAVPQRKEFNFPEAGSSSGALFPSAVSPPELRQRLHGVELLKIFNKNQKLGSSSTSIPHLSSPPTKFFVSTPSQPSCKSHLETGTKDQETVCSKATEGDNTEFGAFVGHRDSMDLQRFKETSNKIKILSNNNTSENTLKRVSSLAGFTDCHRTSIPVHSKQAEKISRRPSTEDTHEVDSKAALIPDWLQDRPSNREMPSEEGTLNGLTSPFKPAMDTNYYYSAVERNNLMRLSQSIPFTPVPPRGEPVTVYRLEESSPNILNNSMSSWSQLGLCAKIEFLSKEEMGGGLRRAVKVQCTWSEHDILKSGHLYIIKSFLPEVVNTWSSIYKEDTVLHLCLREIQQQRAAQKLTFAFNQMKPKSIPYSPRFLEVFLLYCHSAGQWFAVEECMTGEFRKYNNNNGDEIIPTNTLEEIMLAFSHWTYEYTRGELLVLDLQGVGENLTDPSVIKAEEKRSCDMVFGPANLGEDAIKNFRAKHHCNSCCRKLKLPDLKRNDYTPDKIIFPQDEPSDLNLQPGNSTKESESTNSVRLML
SIRT6: NAD-dependent protein deacylase sirtuin-6 (SIRT6, Homo sapiens, UniProt Q8N6T7)
UniProt Q8N6T7, sequence (whole entry, looked up): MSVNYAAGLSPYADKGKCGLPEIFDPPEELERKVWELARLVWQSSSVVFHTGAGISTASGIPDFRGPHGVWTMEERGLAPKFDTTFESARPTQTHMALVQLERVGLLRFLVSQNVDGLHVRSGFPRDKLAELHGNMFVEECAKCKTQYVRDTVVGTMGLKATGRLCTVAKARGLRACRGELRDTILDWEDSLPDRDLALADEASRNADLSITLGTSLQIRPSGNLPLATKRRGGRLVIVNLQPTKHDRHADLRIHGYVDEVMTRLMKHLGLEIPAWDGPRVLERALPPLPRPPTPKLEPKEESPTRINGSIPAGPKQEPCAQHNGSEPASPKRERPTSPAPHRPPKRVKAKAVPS
CDK20: Cyclin-dependent kinase 20 (CDK20, Homo sapiens, UniProt Q8IZL9)
UniProt Q8IZL9, sequence (whole entry, looked up): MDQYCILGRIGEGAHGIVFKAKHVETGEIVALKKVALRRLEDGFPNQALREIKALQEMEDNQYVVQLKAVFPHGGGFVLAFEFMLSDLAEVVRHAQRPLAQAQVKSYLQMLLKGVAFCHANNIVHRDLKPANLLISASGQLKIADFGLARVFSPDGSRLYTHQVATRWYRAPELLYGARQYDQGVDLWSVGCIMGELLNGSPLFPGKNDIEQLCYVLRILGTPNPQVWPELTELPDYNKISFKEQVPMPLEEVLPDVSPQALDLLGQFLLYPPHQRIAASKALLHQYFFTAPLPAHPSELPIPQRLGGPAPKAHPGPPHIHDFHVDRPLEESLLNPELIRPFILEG
Faah: Fatty-acid amide hydrolase 1 (Faah, Mus musculus, UniProt O08914)
UniProt O08914, sequence (whole entry, looked up): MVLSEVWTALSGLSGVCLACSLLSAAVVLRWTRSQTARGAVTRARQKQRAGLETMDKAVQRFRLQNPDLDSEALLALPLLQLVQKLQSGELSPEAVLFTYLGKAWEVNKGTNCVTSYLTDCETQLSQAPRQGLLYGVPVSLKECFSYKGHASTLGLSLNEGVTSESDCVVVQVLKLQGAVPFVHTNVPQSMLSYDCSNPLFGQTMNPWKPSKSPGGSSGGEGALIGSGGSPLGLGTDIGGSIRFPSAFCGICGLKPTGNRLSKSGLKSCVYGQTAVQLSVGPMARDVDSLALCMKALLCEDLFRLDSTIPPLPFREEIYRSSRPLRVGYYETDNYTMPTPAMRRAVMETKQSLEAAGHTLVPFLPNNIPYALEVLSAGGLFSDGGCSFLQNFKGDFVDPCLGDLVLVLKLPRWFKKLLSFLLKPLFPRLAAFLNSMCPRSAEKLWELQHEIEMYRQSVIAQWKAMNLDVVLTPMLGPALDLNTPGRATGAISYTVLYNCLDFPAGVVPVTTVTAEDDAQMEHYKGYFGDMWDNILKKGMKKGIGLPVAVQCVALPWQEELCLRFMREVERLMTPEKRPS
CTSL: Procathepsin L (CTSL, Homo sapiens, UniProt P07711)
UniProt P07711, sequence (whole entry, looked up): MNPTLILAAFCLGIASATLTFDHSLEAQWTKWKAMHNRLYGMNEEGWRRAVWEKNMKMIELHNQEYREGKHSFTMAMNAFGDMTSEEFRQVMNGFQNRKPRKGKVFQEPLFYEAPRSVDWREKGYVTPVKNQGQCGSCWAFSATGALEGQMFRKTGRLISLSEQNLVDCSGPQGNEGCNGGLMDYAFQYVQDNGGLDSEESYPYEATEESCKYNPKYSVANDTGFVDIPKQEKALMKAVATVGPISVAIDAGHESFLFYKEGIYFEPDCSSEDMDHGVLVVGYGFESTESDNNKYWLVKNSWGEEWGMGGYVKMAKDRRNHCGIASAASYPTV
UniProt P37231, sequence (whole entry, looked up): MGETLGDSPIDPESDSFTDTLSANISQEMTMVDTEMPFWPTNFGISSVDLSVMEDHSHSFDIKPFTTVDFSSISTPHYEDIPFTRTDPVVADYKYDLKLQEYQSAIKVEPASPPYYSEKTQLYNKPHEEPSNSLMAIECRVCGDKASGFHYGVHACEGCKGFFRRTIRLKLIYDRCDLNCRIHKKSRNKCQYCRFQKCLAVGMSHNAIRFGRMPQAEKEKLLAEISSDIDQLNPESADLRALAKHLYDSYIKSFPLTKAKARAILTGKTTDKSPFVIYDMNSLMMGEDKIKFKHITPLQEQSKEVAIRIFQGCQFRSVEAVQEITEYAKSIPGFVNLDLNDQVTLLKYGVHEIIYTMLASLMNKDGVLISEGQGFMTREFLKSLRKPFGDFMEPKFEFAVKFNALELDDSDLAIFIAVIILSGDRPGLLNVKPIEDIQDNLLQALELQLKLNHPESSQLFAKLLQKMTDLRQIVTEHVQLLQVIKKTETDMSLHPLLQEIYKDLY
UniProt P43358, sequence (whole entry, looked up): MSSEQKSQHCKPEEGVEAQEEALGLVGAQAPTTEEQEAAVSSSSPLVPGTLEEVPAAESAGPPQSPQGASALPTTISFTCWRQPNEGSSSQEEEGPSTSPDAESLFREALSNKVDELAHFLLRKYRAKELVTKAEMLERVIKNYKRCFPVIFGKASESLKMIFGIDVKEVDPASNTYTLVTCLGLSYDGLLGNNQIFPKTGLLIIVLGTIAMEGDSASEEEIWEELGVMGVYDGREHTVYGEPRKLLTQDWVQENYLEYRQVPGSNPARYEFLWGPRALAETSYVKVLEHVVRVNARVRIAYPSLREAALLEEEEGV
UniProt Q8N755, sequence (whole entry, looked up): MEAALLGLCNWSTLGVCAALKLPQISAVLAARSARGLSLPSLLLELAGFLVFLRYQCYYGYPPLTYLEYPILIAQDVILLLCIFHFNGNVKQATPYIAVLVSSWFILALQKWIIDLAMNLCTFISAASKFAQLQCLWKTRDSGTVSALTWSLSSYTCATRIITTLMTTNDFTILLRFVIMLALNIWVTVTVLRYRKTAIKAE

The inhibition of O=C(NO)c1cc(F)cc(OS(=O)(=O)Oc2ccc(Br)cc2)c1 is reported as 22% (HDAC1; enzyme activity, inhibitor, fluorescence; 10 µM).
The inhibition of CN(Cc1ccc(/C=C/C(=O)NO)cc1)CC12CC3CC(CC(C3)C1)C2 is reported as 0% (human beta2 adrenoceptor; agonist radioligand binding; 0.05 µM).
O=C(Nc1ccc(C(F)F)cc1)[C@H](CC1CCCCC1)Nc1nn2c(=O)ccnc2s1 gave an inhibition of 22% (Tyrosine-protein phosphatase non-receptor type 22 (PTPN22, Homo sapiens, UniProt Q9Y2R2); enzyme activity, inhibitor; 10 µM).
N#Cc1ccnc(N2C(=O)CC[C@H]2C(=O)N(c2cncc(F)c2)[C@H](C(=O)NC2CC(F)(F)C2)c2ccccc2Cl)c1 — result for inhibition: “no inhibition” (L-lactate dehydrogenase A chain (LDHA, Homo sapiens, UniProt P00338); enzyme activity; 100 µM, forward and reverse reactions).
Cc1ccc(-c2nn(-c3ccc(S(C)(=O)=O)cc3)cc2/C=N/N=C2/NC(=O)CS2)cc1 gave an inhibition of 26.7% (Epidermal growth factor receptor (EGFR, Homo sapiens, UniProt P00533); kinase activity, inhibitor; 0.01 µM).
With CC(=O)C12NC(C)(C)CC1(C)C(=O)C1=C2c2c(c3c4n2C(C)(C)CC2=C4C4(CC(C)(C)NC(C)(C4)C2=O)CC3(C)C)C(=O)C(C)(C)N1 (single isomer, unassigned; (-)) the inhibition was 19.2% (A-type voltage-gated potassium channel KCND2 (KCND2, Homo sapiens, UniProt Q9NZV8); ion current, inhibitor, patch clamp; HEK-293T; 10 µM).
For Cc1nc2c(F)cc(-c3nc(Nc4ccc(CNC(=O)CCCCCCC(=O)NO)cc4)ncc3F)cc2n1C(C)C, the inhibition was 11% (TRPM7; kinase activity; 1 µM).
Nc1ccc(C(=O)NOCc2ccccc2)cc1[N+](=O)[O-] gave an inhibition of 54.9% (SIRT6; enzyme activity, inhibitor, fluorescence; 100 µM).
CN(C)C/C=C/C(=O)Nc1ccc2nc(NCCCCCN(C)C)nc(NCCCCCCN(C)C)c2c1 gave an inhibition of 46% (Protein arginine N-methyltransferase 7 (PRMT7, Homo sapiens, UniProt Q9NVM4); enzyme activity, inhibitor, radiometric; 10 µM).
With COc1cc(-c2cn(C)c(=O)c3cnccc23)cc(OC)c1CN(C)C the inhibition was -21.9% (CREB-binding protein (CREBBP, Homo sapiens, UniProt Q92793); 1 µM).
With CS(=O)(=O)Nc1cccc(-c2csc3cnc(Nc4ccc(N5CCN(CCCCCOc6cccc7c6C(=O)N(C6CCC(=O)NC6=O)C7=O)CC5)cc4)nc23)c1 (stereo not shown) the inhibition was 13.4% (CDK20; probe labelling, inhibitor, KiNativ chemoproteomics; MOLT-4; 1 µM).
With C[Si](C)(C)C[C@H](CN)CC(=O)O the inhibition was -1% (nicotinic acetylcholine receptor, rat; binding, radioligand binding; 250 µM, with: [3H]cytisine).
With N#C/C(=C\c1ccc(-c2cc(Cl)ccc2Cl)o1)C(=O)Nc1cccc2ncccc12 the inhibition was under 5% (SIRT6; enzyme activity, inhibitor; 10 µM, with: myristoylated substrate).
For COc1ncc2nc(C)n(Cc3ncc(S(N)(=O)=O)cc3F)c2c1-c1ccccc1, the inhibition was -3.75% (Neuronal acetylcholine receptor; alpha4/beta2 (Homo sapiens, UniProt P17787+P43681); antagonist, cell-based; 10 µM).
For Cc1c(COc2cc(OCc3cccc(C#N)c3)c(CN3CCCC[C@@H]3C(=O)O)cc2Cl)cccc1-c1cccc(OCCCCCC(=O)NO)c1, the inhibition was 85.3% (HDAC1; enzyme activity, inhibitor; 1 µM).
With CN1CC[C@@H](COc2cnc(C#N)cc2-c2ccn3nc(NC(=O)C4CC4)cc3c2)C1 the inhibition was -1% (TRPM7; kinase activity, inhibitor; 1 µM, with: ATP 45 µM).
NC(=O)C[C@H]1CCc2sc3ncnc(O[C@H]4CC[C@H](N5CCOCC5)CC4)c3c21 has an inhibition of 17% (Serine/threonine-protein kinase N3 (PKN3, Homo sapiens, UniProt Q6P5Z2); enzyme activity, inhibitor; 10 µM).
C=CC(=O)N1[C@H](c2ccc3c(c2)OCO3)c2[nH]c3ccccc3c2C[C@@H]1C(=O)NC1CC1 gave an inhibition of 47% (Solute carrier family 66 member 3 (SLC66A3, Homo sapiens, UniProt Q8N755); cysteine IA-DTB labelling, covalent inhibitor, MS-ABPP; 22Rv1; 20 µM, in situ treatment; relative to: DMSO).
For COc1ccc(S(=O)(=O)N2CCc3ccccc3C2)cc1N1CCN(C(=O)c2ccc(F)cc2C(F)(F)F)CC1, the inhibition was 4% (ATP-binding cassette sub-family C member 8 (Abcc8, Rattus norvegicus, UniProt Q09429); radioligand binding, antagonist; 1 µM).
With Cc1c(COc2cc(OCc3cccc(C#N)c3)c(CN3CCCC[C@@H]3C(=O)O)cc2Cl)cccc1-c1cccc(OCc2ccc(C(=O)NO)cc2)c1 the inhibition was 41.6% (HDAC1; enzyme activity, inhibitor; 1 µM).
O=C(n1ccnn1)n1c2ccccc2c2ccccc21 has an inhibition of under 50% (Faah; serine hydrolase activity, inhibitor, competitive gel-based ABPP; mouse T-cell proteome; 1 µM, 30 min, 37 °C).
The inhibition of Cc1ccc(CN(C)C(=O)C(CCc2ccccc2)NC(=O)C(NC(=O)c2ccc(OCc3ccccc3)cc2)C(C)O)cc1 (stereo not shown) is reported as -9% (CTSL; enzyme activity, inhibitor; 100 µM).
C=CC(=O)Nc1cc(-c2nn(C3CCN(CCNC(=O)[C@H](C)CCC45CC6CC(CC(C6)C4)C5)CC3)c3ncnc(N)c23)ccc1Oc1ccccc1 has an inhibition of 25.7% (CDK20; inhibitor, KiNativ profiling; biochemical; 2 µM).
For O=C1c2sc(-c3ccc(N4CCC(F)C4)nc3F)nc2CCN1c1cccnc1 (stereo not shown), the inhibition was -5% (Peroxisome proliferator-activated receptor gamma (PPARG, Homo sapiens, UniProt P37231); ligand displacement, radioligand; 1 µM).
The inhibition of Cc1[nH]nc2c1N=C(c1ccccc1Cl)c1cnc(N3CCOCC3)cc1N2 is reported as 2% (Sodium- and chloride-dependent GABA transporter 1 (Slc6a1, Rattus norvegicus, UniProt P23978); cell-free assay; 10 µM).
With CCn1cc(C(=O)O)c(=O)c2c(N)c(F)c(NC3CCCCC3)cc21 the inhibition was -2.2% (TRPM7; kinase activity; 0.1 µM, with: ATP at Km).
The inhibition of C[Si]1(C[C@H](CN)CC(=O)O)CCCC1 is reported as 2% (Interleukin-1 receptor type 1 (Il1r1, Mus musculus, UniProt P13504); binding, radioligand binding; 70 µM, with: iodinated interleukin-1 beta).
C=CCN(CC=C)C(=O)n1ccnn1 gave an inhibition of over 95% (Faah; serine hydrolase activity, inhibitor, competitive gel-based ABPP; mouse T-cell proteome; 1 µM, 30 min, 37 °C).
CC[C@H](C)[C@@H]1NC(=O)[C@H](Cc2ccc(O)cc2)NC(=O)CCSCc2cccc(c2)CSCCNC(=O)[C@H](Cc2c[nH]cn2)NC(=O)[C@H](Cc2ccc(O)cc2)NC(=O)[C@H](CC(=O)O)NC(=O)[C@H](Cc2ccc(F)cc2)NC(=O)[C@H](CC(C)C)NC(=O)[C@H](CCCNC(=N)N)NC1=O gave an inhibition of over 50% (Melanoma-associated antigen 4, MHD; with RAD18 (Homo sapiens, UniProt P43358); protein-protein interaction, NanoBRET; HEK293; 20 µM).
With Brc1ccccc1-c1nnc(CSc2nnnn2-c2ccccc2)o1 the inhibition was -7% (Delta-type opioid receptor (OPRD1, Homo sapiens, UniProt P41143); ligand displacement, radioligand; 10 µM).
With CNC(=O)C[C@H](Cc1ccc(C#N)cc1)NC(=O)c1cc(-c2ccc(CN[C@H](C)c3ccc(C)cc3)o2)ccc1Cl the inhibition was 4% (Melanocortin receptor 4 (MC4R, Homo sapiens, UniProt P32245); agonist response, antagonist; human cells; 10 µM, MC4 antagonist).
With COc1cc(-n2cc3cc(F)cc(C(N)=O)c3n2)cc(Cl)c1C1CC(O)(CCO)Cc2ccccc21 (stereo not shown) the inhibition was 1.23% (Protein mono-ADP-ribosyltransferase PARP14 (PARP14, Homo sapiens, UniProt Q460N5); enzyme activity, inhibitor; 10 µM).
With COc1ccc(C(=O)Nc2ccc(Nc3cc(C)nc(N4CCCC4)n3)cc2)cc1 the inhibition was 13% (Beta sliding clamp, with Pol III* (Escherichia coli, UniProt P0A988); clamp-dependent DNA synthesis, gel; 300 µM, pH 7.8, 37 °C, with: 4 nM primed ssDNA, 100 fmol Pol III*).
Cc1c(COc2cc(OCc3cccc(C#N)c3)c(CNC(CO)CO)cc2Cl)cccc1-c1cccc(OCCCCCCC(=O)NO)c1 gave an inhibition of 63.5% (HDAC1; enzyme activity, inhibitor; 1 µM).
Cc1ccc(CNC(=O)[C@H](CCc2ccccc2)NC(=O)[C@H](CC(=O)NCC(C)(C)C)NC(=O)CCc2cccc(F)c2)cc1 gave an inhibition of 18% (CTSL; enzyme activity, inhibitor; 100 µM).
Cc1c(COc2cc(OCc3cccc(C#N)c3)c(CNC(C)(CO)CO)cc2Cl)cccc1-c1cccc(OCCCCCC(=O)NO)c1 has an inhibition of 70.5% (HDAC1; enzyme activity, inhibitor; 1 µM).
With C[C@H](CCC(=O)O)[C@H]1CC[C@H]2[C@@H]3[C@H](OS(=O)(=O)O)C[C@@H]4C[C@H](O)CC[C@]4(C)[C@H]3C[C@H](O)[C@]12C the inhibition was 2% (C-C chemokine receptor type 5 (CCR5, Homo sapiens, UniProt P51681); 100 µM).
CCCCCCN(O)C(=O)CCCCC[C@@H]1NC(=O)[C@H]([C@@H](C)CC)NC(=O)[C@H](Cc2ccccc2C(F)(F)F)NC(=O)CCSCc2cccc(n2)CSCCCNC1=O gave an inhibition of 50% (HDAC1; 30 µM).
Cc1c(COc2cc(OCc3cccc(C#N)c3)c(CNC(CO)(CO)CO)cc2Cl)cccc1-c1cccc(OCCCCCC(=O)NO)c1 has an inhibition of 71.3% (HDAC1; enzyme activity, inhibitor; 1 µM).
With C/C=C/C(=O)Nc1ccc2nc(NCCCCCN(C)C)nc(NCCCCCCN(C)C)c2c1 the inhibition was 65% (Histone-lysine N-methyltransferase SUV39H1 (SUV39H1, Homo sapiens, UniProt O43463); enzyme activity, inhibitor, radiometric; 50 µM).
